Measured values from different studies.
Lines come from different studies, so protocols differ. Numbers after ± are the reported error.
SLCO1B3: Solute carrier organic anion transporter family member 1B3 (SLCO1B3, Homo sapiens, UniProt Q9NPD5)
UniProt Q9NPD5, sequence (whole entry, looked up): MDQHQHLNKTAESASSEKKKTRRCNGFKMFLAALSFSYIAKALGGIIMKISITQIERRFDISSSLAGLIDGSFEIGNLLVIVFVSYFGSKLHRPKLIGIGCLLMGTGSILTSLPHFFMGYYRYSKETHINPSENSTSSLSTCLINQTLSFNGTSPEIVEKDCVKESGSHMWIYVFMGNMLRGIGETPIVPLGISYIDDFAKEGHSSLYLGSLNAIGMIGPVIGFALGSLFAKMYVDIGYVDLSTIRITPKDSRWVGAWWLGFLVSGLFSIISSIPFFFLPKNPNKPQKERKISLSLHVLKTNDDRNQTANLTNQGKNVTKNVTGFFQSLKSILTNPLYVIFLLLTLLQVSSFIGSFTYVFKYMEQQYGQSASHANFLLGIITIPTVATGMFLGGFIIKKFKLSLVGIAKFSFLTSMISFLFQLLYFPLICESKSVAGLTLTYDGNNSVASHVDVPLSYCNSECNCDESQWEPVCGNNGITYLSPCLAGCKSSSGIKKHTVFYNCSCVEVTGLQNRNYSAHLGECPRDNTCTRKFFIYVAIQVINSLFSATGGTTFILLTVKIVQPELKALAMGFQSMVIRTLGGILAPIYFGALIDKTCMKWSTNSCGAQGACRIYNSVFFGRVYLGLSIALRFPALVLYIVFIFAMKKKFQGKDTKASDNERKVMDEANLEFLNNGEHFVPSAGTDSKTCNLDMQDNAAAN
ABCG2: Broad substrate specificity ATP-binding cassette transporter ABCG2 (ABCG2, Homo sapiens, UniProt Q9UNQ0)
UniProt Q9UNQ0, sequence (whole entry, looked up): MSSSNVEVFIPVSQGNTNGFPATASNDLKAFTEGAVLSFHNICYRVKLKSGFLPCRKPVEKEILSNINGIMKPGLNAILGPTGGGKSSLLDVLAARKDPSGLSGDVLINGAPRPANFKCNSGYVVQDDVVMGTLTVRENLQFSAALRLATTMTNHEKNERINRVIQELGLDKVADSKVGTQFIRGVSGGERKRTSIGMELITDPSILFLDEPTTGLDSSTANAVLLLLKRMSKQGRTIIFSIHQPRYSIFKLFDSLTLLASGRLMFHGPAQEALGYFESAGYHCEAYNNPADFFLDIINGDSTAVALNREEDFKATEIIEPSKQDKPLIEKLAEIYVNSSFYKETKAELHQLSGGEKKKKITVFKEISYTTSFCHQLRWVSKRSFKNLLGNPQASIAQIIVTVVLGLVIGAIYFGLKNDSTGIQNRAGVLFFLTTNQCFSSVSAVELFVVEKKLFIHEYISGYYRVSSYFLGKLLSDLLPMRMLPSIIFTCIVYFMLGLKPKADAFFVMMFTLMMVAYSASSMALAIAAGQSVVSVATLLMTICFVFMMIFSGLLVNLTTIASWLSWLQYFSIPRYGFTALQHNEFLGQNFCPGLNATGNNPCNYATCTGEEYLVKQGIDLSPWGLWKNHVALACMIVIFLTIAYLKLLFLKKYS
UniProt P10635, sequence (whole entry, looked up): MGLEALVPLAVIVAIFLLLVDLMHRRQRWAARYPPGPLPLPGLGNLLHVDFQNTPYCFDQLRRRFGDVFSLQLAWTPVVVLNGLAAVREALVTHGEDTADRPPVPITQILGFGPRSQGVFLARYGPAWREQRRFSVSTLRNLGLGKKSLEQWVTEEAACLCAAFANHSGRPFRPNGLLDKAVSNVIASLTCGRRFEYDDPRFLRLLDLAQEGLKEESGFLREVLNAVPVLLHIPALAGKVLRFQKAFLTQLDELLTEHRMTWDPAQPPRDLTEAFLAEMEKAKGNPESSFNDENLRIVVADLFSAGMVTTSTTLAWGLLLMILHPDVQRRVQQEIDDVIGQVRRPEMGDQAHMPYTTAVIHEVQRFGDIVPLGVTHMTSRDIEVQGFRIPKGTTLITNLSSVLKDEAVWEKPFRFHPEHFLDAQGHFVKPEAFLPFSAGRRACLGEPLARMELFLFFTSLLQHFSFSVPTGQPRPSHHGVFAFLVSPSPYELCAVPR

N#C[C@@H]1CC(F)(F)CN1C(=O)CNC(=O)c1ccnc2c(NC(=O)[C@@H](N)CCCCNC(=O)CCOCCOCCOCCOCCOCCOCCNC(=O)CN3CCN(CC(=O)[O-])CCN(CC(=O)[O-])CCN(CC(=O)[O-])CC3)cccc12.[177Lu+3]  tracer uptake (U-87 MG tumour model; host not given, muscle; 1 h, tumour-bearing): 0.66 %ID/g
O=C(c1ccc(OCCN2CCCCC2)cc1)c1c(-c2ccc(O[C@@H]3O[C@H](C(=O)O)[C@@H](O)[C@H](O)[C@H]3O)cc2)sc2cc(O)ccc12  Vmax (SLCO1B3; HEK293 expressing SLCO1B3; pH 7.4): 13.6 pmol/min/mg protein
N#C[C@@H]1CC(F)(F)CN1C(=O)CNC(=O)c1ccnc2c(NC(=O)[C@H](CCCCNC(=O)CCOCCOCCOCCOCCOCCOCCNC(=O)CN3CCN(CC(=O)[O-])CCN(CC(=O)[O-])CCN(CC(=O)[O-])CC3)NC(=O)CCCc3ccc(I)cc3)cccc12.[177Lu+3]  tracer uptake (U-87 MG tumour model; host not given, blood; 48 h, tumour-bearing): 0.33 %ID/g
CCCC[C@H](NC(=O)COCCOCCNC(=O)CN1CCN(CC(=O)O)CCN(CC(=O)O)CC1)C(=O)N[C@H]1CC(=O)NCCCC[C@@H](C(N)=O)NC(=O)[C@H](Cc2c[nH]c3ccccc23)NC(=O)[C@H](CCCNC(=N)N)NC(=O)[C@@H](Cc2ccccc2)NC(=O)[C@H](Cc2c[nH]cn2)NC1=O [technetium-99m labelled]  tissue uptake (C57 mouse, spleen; intravenous, 0.037 MBq, 4 h): 0.1 ± 0.08 %ID/g
O=C1C2CC3CC1CC(C(=O)N1CCN(c4ccc([N+](=O)[O-])c5ncccc45)CC1)(C3)C2  revertant fold increase (Salmonella typhimurium; Ames test; TA100; 0.78 µg/well, with S9; reference: vehicle): 1
Cc1cc(C)nc(NC(=S)N2CCN(Cc3ccc(C(F)(F)F)cc3)CC2)c1  Papp A-B (MDCK-MDR1): 4.1 ± 0.7 ×10⁻⁶ cm/s
O=C(c1ccc(OCCN2CCCCC2)cc1)c1c(-c2ccc(O)cc2)sc2cc(O[C@@H]3O[C@H](C(=O)O)[C@@H](O)[C@H](O)[C@H]3O)ccc12  intrinsic clearance (SLCO1B3; substrate; HEK293 expressing SLCO1B3; pH 7.4): 1.81 µL/min/mg protein
C=C1CC[C@H](OCCCNC(=O)CCOCCOCCOCCOCCOCCOCCOCCOCCOCCOCCOCCOCCOCCOCCOCCOCCOCCOCCOCCOCCOCCOCCOCCOCCOCCOCCOCCOCCOCCOCCOCCOCCOCCOCCOCCOCCNC(=O)CCN2C(=O)CC(SC[C@H](NC(=O)[C@H](Cc3ccccc3)NC(=O)[C@H](CC(N)=O)NC(=O)[C@H](Cc3c[nH]cn3)NC(=O)[C@@H](NC(=O)[C@H](CC(=O)O)NC(=O)[C@H](CCC(N)=O)NC(=O)[C@H](CC(C)C)NC(=O)[C@H](CCCCN)NC(=O)[C@H](CCCCN)NC(=O)[C@H](CCCNC(=N)N)NC(=O)[C@H](CC(C)C)NC(=O)[C@H](Cc3c[nH]c4ccccc34)NC(=O)[C@H](CCC(=O)O)NC(=O)[C@@H](NC(=O)[C@H](CCCNC(=N)N)NC(=O)[C@H](CCC(=O)O)NC(=O)[C@H](CCSC)NC(=O)[C@H](CO)NC(=O)[C@H](CC(N)=O)NC(=O)[C@H](CC(C)C)NC(=O)[C@H](Cc3c[nH]cn3)NC(=O)[C@H](CCCCN)NC(=O)CNC(=O)[C@H](CC(C)C)NC(=O)[C@H](CC(N)=O)NC(=O)[C@H](Cc3c[nH]cn3)NC(=O)[C@H](CCSC)NC(=O)[C@H](CC(C)C)NC(=O)[C@H](CCC(N)=O)NC(=O)[C@@H](NC(=O)[C@H](CCC(=O)O)NC(=O)[C@H](CO)NC(=O)[C@@H](NC(=O)[C@@H](N)CO)C(C)C)[C@@H](C)CC)C(C)C)C(C)C)C(=O)O)C2=O)C/C1=C/C=C1\CCC[C@]2(C)[C@@H]([C@H](C)CCCC(C)(C)O)CC[C@@H]12 (stereo partly shown)  Tmax (male cynomolgus monkey, plasma; subcutaneous, 0.007 mg/kg, single dose): 10.7 h
N#C[C@@H]1CCCN1C(=O)CNC(=O)c1ccnc2ccc(OCCCN3CCN(C(=O)CCc4ccc(O)c(CN5CCN6CC(=O)[O][Al-]([18F])([O]C(=O)C5)[O]c5ccc(CCC(=O)N7CCN(CCCOc8ccc9nccc(C(=O)NCC(=O)N%10CCC[C@H]%10C#N)c9c8)CC7)cc5C6)c4)CC3)cc12 (stereo partly shown)  tracer uptake (U-87 MG tumour model; host not given, bone; 2 h, tumour-bearing): 12.4 %ID/g
COc1cccc(OC)c1-c1cc(C(=O)NC2(C(=O)O)C3CC4CC(C3)CC2C4)nn1-c1ccc(C(=O)N(C)CCCN(C)CCCN(C)C(=O)[C@H](CCCCNC(=O)[C@H](CC(C)C)NC(=O)C2OC2C(=O)O)NC(=O)CN2CCN(CC(=O)[O-])CCN(CC(=O)[O-])CCN(CC(=O)[O-])CC2)cc1C(C)C.[177Lu+3] (mixture of isomers)  tracer uptake (HT-29 tumour model; host not given, pancreas; 7 days, tumour-bearing): 0.17 %ID/g
N#Cc1cccc(-c2ccc(=O)n(Cc3cccc(-c4ncc(OCC5CCN(CC(=O)N6CCN(c7ccc8c(c7)C(=O)N(C7CCC(=O)NC7=O)C8=O)CC6)CC5)cn4)c3)n2)c1 (stereo not shown)  efflux ratio (Caco-2; transwell monolayer; 2 µM, 120 min, pH 7.4, 0.1% DMSO, together with: GF120918 10 µM): 2.09
CC(C)OCCOCc1ccc(OCC(O)CN(N=O)C(C)C)cc1 (stereo not shown)  revertant fold increase (Salmonella typhimurium; Ames test; TA100; 5000 µg/plate, 30 % rat S9; reference: solvent control): 0.8 fold
CC(C)Cc1ccc(C(C)C(=O)N[C@@H](CCCCNC(=O)CCOCCOCCOCCOCCOCCOCCNC(=O)CN2CCN(CC(=O)[O-])CCN(CC(=O)[O-])CCN(CC(=O)[O-])CC2)C(=O)Nc2cccc3c(C(=O)NCC(=O)N4CC(F)(F)C[C@H]4C#N)ccnc23)cc1.[177Lu+3] (stereo partly shown)  tracer uptake (U-87 MG tumour model; host not given, stomach; 1 h, tumour-bearing): 3.15 %ID/g
CN1CCCNC(=O)c2cccc(c2)C(=O)NCCCN(C)CCCNc2cccc3c2C(=O)c2cccc(c2C3=O)NCCC1  viability (NHEK; CCK-8; 0.05 µM, 48 h; reference: untreated): 84.5%
C=C(NC(=O)c1csc(-c2nc3c(cc2O)-c2nc(cs2)C(=O)NC(C(C)O)C(=O)NC(=C(C)OC)c2nc(cs2)C(=O)NC2c4nc(cs4)C(=O)NC(COC(=O)c4c5c6c(cccc6n4O)COC(=O)C(OC4CC(C)(O)C(N(C)C)C(C)O4)C2OC5)c2nc-3cs2)n1)C(N)=O (stereo not shown)  AUC(0-inf) (Sprague-Dawley rats, both sexes, plasma; intravenous infusion, 6 mg/kg, day 1, multiple dosing): 1790 ng·h/mL
O=C(Nc1cnccc1-c1ccc([18F])nc1)c1ccnc(NC(=O)C2CC2)c1  SUV (mice, transgenic, GSK-3β, early-stage, lung; intravenous, dose not given, 120 min, together with: tariquidar 15 mg/kg i.v. pre-dose): 0.178
CNc1nc(N)nc2c1ncn2[C@@H]1O[C@H](CO)[C@@H](O)[C@@]1(C)F  Papp B to A (ABCG2; bidirectional transport; MDCKII transfected with human BCRP; 10 µM, together with: Ko143 1 µM): 8.65 ± 0.43 ×10⁻⁶ cm/s
COC1CN([C@H]2CC[C@H]([C@@]3(C)Oc4c(Cl)cc(C(=O)NCc5c(SC)cc(C)[nH]c5=O)c(C)c4O3)CC2)C1  log2 fold change (RNA-seq, item: GNG12; human, whole blood; dose not given, 24 h; reference: pretreatment baseline): 4.08
C[n+]1cccc2cc(/C=N/NC(=O)c3cccc(C(=O)N/N=C/c4ccc5c(ccc[n+]5C)c4)n3)ccc21  ΔTm (MYC parallel G4 DNA; FRET melting; 1 µM, DNA 0.2 µM): 9.9 ± 0.5 °C
CNc1nc(N)nc2c1ncn2[C@@H]1O[C@H](CO[P@](=O)(O)N[C@@H](C)C(=O)O)[C@@H](O)[C@@]1(C)F  efflux ratio (ABCG2; bidirectional transport; MDCKII transfected with human BCRP; 10 µM): 1.02 ± 0.12
Cc1nn(-c2cccc(N)c2)c(=O)c2cnc(Nc3ccc(N4CCNCC4)cc3)nc12  IC50 (PRKCG (Homo sapiens, UniProt P05129); enzyme activity, inhibitor): 4.01 µM
O=C1c2sc(-c3ccc(N4CCC(F)C4)nc3F)nc2CCN1c1cccnc1 (stereo not shown)  parent fraction (HPLC; rhesus monkey, plasma; intravenous, 14.98 min): 0.553
C[C@@]1(F)[C@H](O)[C@@H](CO)O[C@H]1n1cnc2c(=O)[nH]c(N)nc21  Papp B to A (ABCG2; bidirectional transport; MDCKII transfected with human BCRP; 10 µM): 3.81 ± 0.17 ×10⁻⁶ cm/s
CCCCCC(=O)N[C@@H](Cc1ccccc1)C(=O)N[C@@H](CCCC)C(=O)N[C@@H](Cc1ccccc1)C(=O)[C@@]1(C)CO1  selectivity index (Trypanosoma brucei brucei; HepG2 cells, Lister 427; reference: HepG2 CC50 over T. brucei EC50): < 1
CCN(CC)CC#CCNc1ccnc2cc(Cl)ccc12  revertants per well (Salmonella typhimurium; mini-Ames test; TA100; 1000.0 µg/well, with rat liver S9): 10
O=C(Nc1cnccc1-c1ccc([18F])cc1)c1ccnc(NC(=O)C2CC2)c1  SUV (ex vivo gamma counting; GSK-3β transgenic mice, early-stage, hippocampus; intravenous, 120 min, mean, P-gp inhibitor pretreatment, together with: tariquidar 15 mg/kg iv): 0.26
C[n+]1ccc(/C=N/NC(=O)c2ccc3ccc4ccc(C(=O)N/N=C/c5cc[n+](C)cc5)nc4c3n2)cc1  ΔTm (MYC parallel G4 DNA; FRET melting; 1 µM, DNA 0.2 µM): 10.5 ± 0.5 °C
CNC(=O)C1CCCN(C(=O)C2CC3CCC2N3C(=O)[C@@H]2C[C@@H](O)CN2C(=O)NCc2cccc(Cl)c2F)C1 (mixture of isomers)  remaining activity (Cytochrome P450 2D6 (CYP2D6, Homo sapiens, UniProt P10635); enzyme activity, inhibitor, time-dependent inhibition; 0.206 µM, preincubated without NADPH; reference: negative control): 99.3%

A few entries again:
CC(C)OCCOCc1ccc(OCC(O)CN(N=O)C(C)C)cc1 (stereo not shown)  revertant fold increase (Salmonella typhimurium; Ames test; TA100; 5000 µg/plate, 30 % rat S9; reference: solvent control): 0.8 fold
CC(C)Cc1ccc(C(C)C(=O)N[C@@H](CCCCNC(=O)CCOCCOCCOCCOCCOCCOCCNC(=O)CN2CCN(CC(=O)[O-])CCN(CC(=O)[O-])CCN(CC(=O)[O-])CC2)C(=O)Nc2cccc3c(C(=O)NCC(=O)N4CC(F)(F)C[C@H]4C#N)ccnc23)cc1.[177Lu+3] (stereo partly shown)  tracer uptake (U-87 MG tumour model; host not given, stomach; 1 h, tumour-bearing): 3.15 %ID/g
CN1CCCNC(=O)c2cccc(c2)C(=O)NCCCN(C)CCCNc2cccc3c2C(=O)c2cccc(c2C3=O)NCCC1  viability (NHEK; CCK-8; 0.05 µM, 48 h; reference: untreated): 84.5%
C=C(NC(=O)c1csc(-c2nc3c(cc2O)-c2nc(cs2)C(=O)NC(C(C)O)C(=O)NC(=C(C)OC)c2nc(cs2)C(=O)NC2c4nc(cs4)C(=O)NC(COC(=O)c4c5c6c(cccc6n4O)COC(=O)C(OC4CC(C)(O)C(N(C)C)C(C)O4)C2OC5)c2nc-3cs2)n1)C(N)=O (stereo not shown)  AUC(0-inf) (Sprague-Dawley rats, both sexes, plasma; intravenous infusion, 6 mg/kg, day 1, multiple dosing): 1790 ng·h/mL
O=C(Nc1cnccc1-c1ccc([18F])nc1)c1ccnc(NC(=O)C2CC2)c1  SUV (mice, transgenic, GSK-3β, early-stage, lung; intravenous, dose not given, 120 min, together with: tariquidar 15 mg/kg i.v. pre-dose): 0.178
